Published values from different studies.
Parts stem from different laboratories: compare values within a part only.
Chain of UniProt P31751 (whole entry, looked up): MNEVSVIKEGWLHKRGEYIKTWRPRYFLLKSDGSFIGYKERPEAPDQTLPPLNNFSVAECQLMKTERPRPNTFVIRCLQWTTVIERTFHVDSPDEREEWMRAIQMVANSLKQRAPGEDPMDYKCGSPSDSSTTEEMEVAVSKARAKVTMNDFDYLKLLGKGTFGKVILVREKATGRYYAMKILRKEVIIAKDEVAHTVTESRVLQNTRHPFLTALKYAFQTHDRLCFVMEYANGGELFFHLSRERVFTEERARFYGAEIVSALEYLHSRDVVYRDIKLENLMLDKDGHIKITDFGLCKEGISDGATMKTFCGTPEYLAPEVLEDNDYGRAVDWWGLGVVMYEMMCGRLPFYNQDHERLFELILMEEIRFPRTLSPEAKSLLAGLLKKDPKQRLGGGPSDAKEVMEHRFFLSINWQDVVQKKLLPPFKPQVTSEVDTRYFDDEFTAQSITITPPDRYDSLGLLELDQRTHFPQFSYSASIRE
Chain of UniProt Q15303 (whole entry, looked up): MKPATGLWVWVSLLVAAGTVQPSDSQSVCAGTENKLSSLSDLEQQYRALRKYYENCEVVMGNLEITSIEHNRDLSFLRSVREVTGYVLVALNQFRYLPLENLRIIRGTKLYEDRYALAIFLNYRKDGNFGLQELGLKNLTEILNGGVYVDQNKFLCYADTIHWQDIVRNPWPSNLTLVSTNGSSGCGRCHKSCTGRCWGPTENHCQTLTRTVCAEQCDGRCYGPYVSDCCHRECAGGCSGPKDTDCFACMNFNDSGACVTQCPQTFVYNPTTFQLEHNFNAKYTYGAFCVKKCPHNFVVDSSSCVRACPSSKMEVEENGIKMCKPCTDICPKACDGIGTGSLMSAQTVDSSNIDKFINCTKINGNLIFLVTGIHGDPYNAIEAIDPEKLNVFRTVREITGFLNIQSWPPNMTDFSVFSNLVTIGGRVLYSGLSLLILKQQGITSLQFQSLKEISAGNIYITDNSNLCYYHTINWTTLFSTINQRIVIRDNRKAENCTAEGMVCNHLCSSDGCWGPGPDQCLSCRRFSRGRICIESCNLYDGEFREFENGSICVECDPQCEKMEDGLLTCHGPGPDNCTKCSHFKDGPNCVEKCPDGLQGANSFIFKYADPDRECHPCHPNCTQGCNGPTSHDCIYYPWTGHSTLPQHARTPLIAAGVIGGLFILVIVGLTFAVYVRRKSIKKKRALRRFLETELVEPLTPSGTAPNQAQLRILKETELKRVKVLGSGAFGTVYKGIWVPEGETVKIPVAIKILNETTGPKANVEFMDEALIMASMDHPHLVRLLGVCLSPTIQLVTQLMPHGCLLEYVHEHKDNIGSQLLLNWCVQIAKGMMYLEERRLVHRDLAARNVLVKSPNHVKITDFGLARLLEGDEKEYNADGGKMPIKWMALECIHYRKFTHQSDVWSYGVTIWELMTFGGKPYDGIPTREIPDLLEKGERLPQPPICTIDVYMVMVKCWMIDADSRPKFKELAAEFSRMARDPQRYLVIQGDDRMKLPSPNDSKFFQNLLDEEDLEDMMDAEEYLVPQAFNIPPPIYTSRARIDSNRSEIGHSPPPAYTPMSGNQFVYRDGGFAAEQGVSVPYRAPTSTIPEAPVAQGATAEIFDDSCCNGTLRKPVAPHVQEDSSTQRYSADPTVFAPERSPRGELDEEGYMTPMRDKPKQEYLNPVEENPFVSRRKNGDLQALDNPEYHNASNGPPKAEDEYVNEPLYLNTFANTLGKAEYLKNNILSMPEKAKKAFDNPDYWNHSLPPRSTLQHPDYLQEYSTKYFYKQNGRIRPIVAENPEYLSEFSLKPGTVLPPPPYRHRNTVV
Chain of UniProt Q8WXR4 (whole entry, looked up): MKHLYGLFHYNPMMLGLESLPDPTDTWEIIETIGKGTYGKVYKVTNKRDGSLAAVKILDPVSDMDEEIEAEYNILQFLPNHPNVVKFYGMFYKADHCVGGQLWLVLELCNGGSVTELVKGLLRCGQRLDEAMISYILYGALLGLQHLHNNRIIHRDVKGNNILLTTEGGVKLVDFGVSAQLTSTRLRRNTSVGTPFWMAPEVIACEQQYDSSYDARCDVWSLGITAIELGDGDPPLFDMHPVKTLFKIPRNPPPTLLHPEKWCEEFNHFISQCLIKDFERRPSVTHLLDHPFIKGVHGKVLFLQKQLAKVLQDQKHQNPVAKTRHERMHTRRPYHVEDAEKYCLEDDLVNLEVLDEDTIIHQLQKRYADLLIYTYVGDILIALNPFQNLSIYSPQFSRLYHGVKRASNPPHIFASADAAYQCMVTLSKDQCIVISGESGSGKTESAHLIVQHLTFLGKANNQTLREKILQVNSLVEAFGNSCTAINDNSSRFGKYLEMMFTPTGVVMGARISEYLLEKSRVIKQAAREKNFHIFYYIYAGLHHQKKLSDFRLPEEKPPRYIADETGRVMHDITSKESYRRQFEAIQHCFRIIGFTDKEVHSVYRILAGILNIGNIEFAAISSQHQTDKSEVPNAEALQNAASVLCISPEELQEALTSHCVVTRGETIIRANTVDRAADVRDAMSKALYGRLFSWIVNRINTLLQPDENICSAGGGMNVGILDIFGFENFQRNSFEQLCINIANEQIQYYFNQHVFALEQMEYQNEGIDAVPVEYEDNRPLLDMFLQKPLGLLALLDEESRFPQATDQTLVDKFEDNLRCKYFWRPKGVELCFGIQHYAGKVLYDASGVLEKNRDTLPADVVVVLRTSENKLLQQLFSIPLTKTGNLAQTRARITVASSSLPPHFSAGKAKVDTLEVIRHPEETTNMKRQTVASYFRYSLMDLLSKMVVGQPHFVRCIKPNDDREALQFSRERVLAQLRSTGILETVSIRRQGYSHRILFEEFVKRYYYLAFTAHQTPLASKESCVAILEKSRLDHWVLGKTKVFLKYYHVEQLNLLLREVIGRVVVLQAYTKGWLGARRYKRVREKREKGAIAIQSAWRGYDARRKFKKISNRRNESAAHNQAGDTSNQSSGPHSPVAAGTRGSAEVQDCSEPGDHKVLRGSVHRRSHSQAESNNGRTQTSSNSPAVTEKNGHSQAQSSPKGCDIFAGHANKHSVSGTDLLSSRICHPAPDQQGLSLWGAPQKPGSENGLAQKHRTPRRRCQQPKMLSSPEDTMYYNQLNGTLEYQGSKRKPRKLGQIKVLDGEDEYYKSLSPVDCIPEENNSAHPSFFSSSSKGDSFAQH
Chain of UniProt Q9UQ88 (whole entry, looked up): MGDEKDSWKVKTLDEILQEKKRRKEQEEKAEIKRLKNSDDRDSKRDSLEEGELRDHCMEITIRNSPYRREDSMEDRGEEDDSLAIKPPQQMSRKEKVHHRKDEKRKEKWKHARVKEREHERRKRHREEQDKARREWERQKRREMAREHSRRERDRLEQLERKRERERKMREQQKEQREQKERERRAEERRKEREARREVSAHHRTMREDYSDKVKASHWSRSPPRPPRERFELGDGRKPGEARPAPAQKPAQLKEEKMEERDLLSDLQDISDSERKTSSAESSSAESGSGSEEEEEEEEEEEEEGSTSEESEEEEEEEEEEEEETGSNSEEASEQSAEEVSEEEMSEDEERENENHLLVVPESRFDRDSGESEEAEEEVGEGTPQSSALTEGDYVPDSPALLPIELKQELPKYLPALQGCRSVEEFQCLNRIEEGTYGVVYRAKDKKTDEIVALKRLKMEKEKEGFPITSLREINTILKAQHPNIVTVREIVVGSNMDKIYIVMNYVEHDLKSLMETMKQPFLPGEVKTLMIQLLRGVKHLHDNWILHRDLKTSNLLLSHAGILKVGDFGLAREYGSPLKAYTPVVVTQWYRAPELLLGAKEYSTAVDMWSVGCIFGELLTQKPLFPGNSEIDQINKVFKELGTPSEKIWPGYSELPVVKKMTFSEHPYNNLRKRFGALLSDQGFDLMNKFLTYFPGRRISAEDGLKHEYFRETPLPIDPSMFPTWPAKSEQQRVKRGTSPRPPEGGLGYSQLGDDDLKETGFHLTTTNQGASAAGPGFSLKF
Chain of UniProt Q16566 (whole entry, looked up): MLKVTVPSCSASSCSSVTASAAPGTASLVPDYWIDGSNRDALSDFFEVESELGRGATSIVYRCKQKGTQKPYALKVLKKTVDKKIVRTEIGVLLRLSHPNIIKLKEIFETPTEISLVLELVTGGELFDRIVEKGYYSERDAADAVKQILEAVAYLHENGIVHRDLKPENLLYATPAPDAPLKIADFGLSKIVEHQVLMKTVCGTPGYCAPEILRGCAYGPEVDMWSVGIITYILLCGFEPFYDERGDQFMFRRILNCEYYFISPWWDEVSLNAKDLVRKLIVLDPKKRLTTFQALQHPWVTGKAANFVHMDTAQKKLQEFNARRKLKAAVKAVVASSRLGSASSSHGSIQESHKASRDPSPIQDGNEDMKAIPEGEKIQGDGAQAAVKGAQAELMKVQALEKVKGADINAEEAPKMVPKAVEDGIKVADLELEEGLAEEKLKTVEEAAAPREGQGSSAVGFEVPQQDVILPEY

Series 1
Structure (SMILES): CCS(=O)(=O)c1cc2cc(C[C@](O)(CC(C)(C)c3ccc(F)cc3C(N)=O)C(F)(F)F)[nH]c2cn1
Observed: cell-free assay
Technique: competition with immobilised ligand
Tested at: 1 µM
target	remaining binding
MAPK14 (Homo sapiens, UniProt Q16539)	100%
ERBB4 (Homo sapiens, UniProt Q15303)	100%
SIK2 (Homo sapiens, UniProt Q9H0K1)	100%
EGFR (Homo sapiens, UniProt P00533, L858R/T790M)	83%
SRPK2 (Homo sapiens, UniProt P78362)	82%
MKNK2 (Homo sapiens, UniProt Q9HBH9)	100%
CDK11A (Homo sapiens, UniProt Q9UQ88)	100%
GSK3A (Homo sapiens, UniProt P49840)	100%
AKT2 (Homo sapiens, UniProt P31751)	94%
CLK4 (Homo sapiens, UniProt Q9HAZ1)	95%
RIOK1 (Homo sapiens, UniProt Q9BRS2)	80%

Series 2
Target: TAR DNA-binding protein 43, full length, His tag (TARDBP, Homo sapiens, UniProt Q13148, residues 1-414)
Technique: RNA Bind-n-Seq
Form: RNA
Matrix: in vitro
Tested at: 20 nM
Notes: 6-mer, flanks averaged, single round
With: 150 mM LiCl
Reference: input library
Direction: higher = stronger binding
Sequence	6-mer enrichment (R)
CAUCCA	0.856
UCCGUU	0.931
GGACGA	0.984
UGGACC	0.954
AUUAAG	0.921
ACGAUU	0.815
AUCGUG	0.981
UCGCAG	0.867

Series 3
Target: Protein C-ets-1 (ETS1, Homo sapiens, UniProt P14921, residues 1-441, K379A, full length assumed)
Chain of UniProt P14921 (whole entry, unmodified, looked up): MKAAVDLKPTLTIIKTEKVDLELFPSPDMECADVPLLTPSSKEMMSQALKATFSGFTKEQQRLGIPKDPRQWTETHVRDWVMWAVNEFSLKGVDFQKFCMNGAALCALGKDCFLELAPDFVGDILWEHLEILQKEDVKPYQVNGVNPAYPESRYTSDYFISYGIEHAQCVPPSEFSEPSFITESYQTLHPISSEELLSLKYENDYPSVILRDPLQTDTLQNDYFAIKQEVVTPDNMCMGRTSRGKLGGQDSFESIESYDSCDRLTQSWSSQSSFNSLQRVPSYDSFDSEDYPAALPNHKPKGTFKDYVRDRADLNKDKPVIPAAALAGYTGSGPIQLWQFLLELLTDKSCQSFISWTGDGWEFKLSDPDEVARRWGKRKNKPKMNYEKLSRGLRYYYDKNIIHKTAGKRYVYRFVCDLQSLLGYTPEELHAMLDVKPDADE
Technique: protein-binding microarray
Form: double-stranded DNA, one strand shown
Matrix: in vitro
Tested at: not given
Notes: k-mer, scored over probes, only values ≥0.25
Direction: higher = stronger binding
Sequence	E-score
GGGTATAC	0.272
ATGTAAAA	0.254
AACCGGAT	0.424
ACCGGGAT	0.435
TGTCGGAA	0.283
CCGGTATC	0.402
TCCGGACA	0.252
AACCGGAA	0.457

Series 4
Structure (SMILES): c1ccc(-c2[nH]ncc2-c2ccnc3ccccc23)nc1
Observed: enzyme activity
Mode: inhibitor
Tested at: 0.5 µM
Reference: control
target	remaining activity
RPS6KA4 (Homo sapiens, UniProt O75676)	87.2%
MINK1 (Homo sapiens, UniProt Q8N4C8)	84.1%
PRKG2 (Homo sapiens, UniProt Q13237)	89.2%
MAPK11 (Homo sapiens, UniProt Q15759)	106%
CAMK4 (Homo sapiens, UniProt Q16566)	97.5%
Myosin-IIIb (MYO3B, Homo sapiens, UniProt Q8WXR4)	91.7%
TXK (Homo sapiens, UniProt P42681)	89.1%
MAPK1 (Homo sapiens, UniProt P28482)	108%
MET (Homo sapiens, UniProt P08581)	94.1%
PLK3 (Homo sapiens, UniProt Q9H4B4)	91.7%
Cyclin-dependent kinase 9, with cyclin K (CDK9, Homo sapiens, UniProt P50750)	98.7%
MARK4 (Homo sapiens, UniProt Q96L34)	105%
AKT2 (Homo sapiens, UniProt P31751)	93%

Excerpt of the above (series 2):
Sequence	6-mer enrichment (R)
AUUAAG	0.921
ACGAUU	0.815
AUCGUG	0.981
UCGCAG	0.867
